Experimental data pooled from the literature.
Compare with care: the assays were run in different laboratories.
Organism: Candida albicans

SMILES	test	system	setting	MIC
CC(C)[C@H](NC(=O)[C@H](CCCNC(=N)N)NC(=O)[C@H](Cc1c[nH]c2ccccc12)NC(=O)[C@H](CCCNC(=N)N)NC(=O)[C@H](Cc1c[nH]c2ccccc12)NC(=O)[C@H](Cc1c[nH]c2ccccc12)NC(=O)[C@H](Cc1c[nH]c2ccccc12)NC(=O)[C@H](CCCNC(=N)N)NC(=O)[C@H](Cc1c[nH]c2ccccc12)NC(=O)[C@H](CCCNC(=N)N)NC(=O)CN)C(N)=O	broth microdilution	CGMCC 2.209, RPMI 1640-MOPS	48 h, 30 °C, with: MgCl2 1 mM	8 µM
CC(C)C[C@H](NC(=O)[C@H](CCCCN)NC(=O)[C@H](CO)NC(=O)[C@H](CC(C)C)NC(=O)[C@H](CC(C)C)NC(=O)CNC(=O)[C@H](CC(C)C)NC(=O)[C@H](CCCCN)NC(=O)[C@H](CC(C)C)NC(=O)[C@H](CC(C)C)NC(=O)[C@H](CC(C)C)NC(=O)CNC(=O)[C@H](CO)NC(=O)[C@H](Cc1c[nH]c2ccccc12)NC(=O)[C@@H](N)CCCCN)C(N)=O	broth microdilution	ATCC 10231	44 h, 37 °C	> 100 µM
CCCCC[C@@H]1CC(=O)N[C@H](CC(C)C)C(=O)N[C@@H](CO)C(=O)N[C@@H]([C@@H](C)O)C(=O)N[C@H](Cc2ccccc2)C(=O)N[C@@H]([C@@H](C)CC)C(=O)O1	fungal growth, XTT	SC5314		> 100 µM
OC(Cn1cncn1)(Cn1cncn1)c1ccc(F)cc1F		ATCC 36232	50% inhibition	2 µg/mL
OC(Cn1cncn1)(Cn1cncn1)c1ccc(F)cc1F	broth microdilution	14936, RPMI 1640-MOPS	48 h, 30 °C	32 µM
CC(=O)N1CCN(c2ccc(OCC3COC(Cn4ccnc4)(c4ccc(Cl)cc4Cl)O3)cc2)CC1 (stereo not shown)		2.209	after 30 generations serial passaging	512 µM
N=C(N)NCCC[C@H](NC(=O)[C@H](Cc1c[nH]c2ccccc12)NC(=O)[C@H](CCCNC(=N)N)NC(=O)[C@H](Cc1c[nH]c2ccccc12)NC(=O)[C@H](Cc1c[nH]c2ccccc12)NC(=O)[C@H](Cc1c[nH]c2ccccc12)NC(=O)[C@H](CCCNC(=N)N)NC(=O)[C@H](Cc1c[nH]c2ccccc12)NC(=O)[C@@H](N)CCCNC(=N)N)C(N)=O	broth microdilution	CGMCC 2.209, RPMI 1640-MOPS	48 h, 30 °C, with: NH4Cl 6 µM	4 µM
CC[C@H](C)[C@H](NC(=O)[C@@H](NC(=O)[C@@H](NC(=O)[C@H](Cc1c[nH]c2ccccc12)NC(=O)[C@H](Cc1c[nH]c2ccccc12)NC(=O)[C@H](CCCNC(=N)N)NC(=O)[C@@H](N)CCCNC(=N)N)[C@@H](C)O)C(C)C)C(N)=O				32 µg/mL
CC[C@H](C)[C@H](NC(=O)CN)C(=O)NCC(=O)N[C@@H](C)C(=O)N[C@H](C(=O)N[C@@H](CC(C)C)C(=O)N[C@@H](CCCCN)C(=O)N[C@H](C(=O)N[C@@H](CC(C)C)C(=O)N[C@H](C(=O)N[C@H](C(=O)NCC(=O)N[C@@H](CC(C)C)C(=O)N1CCC[C@H]1C(=O)N[C@@H](C)C(=O)N[C@@H](CC(C)C)C(=O)N[C@H](C(=O)N[C@@H](CO)C(=O)N[C@@H](Cc1c[nH]c2ccccc12)C(=O)N[C@H](C(=O)N[C@@H](CCCCN)C(=O)N[C@@H](CCCNC(=N)N)C(=O)N[C@@H](CCCCN)C(=O)N[C@@H](CCCNC(=N)N)C(=O)N[C@@H](CCC(N)=O)C(=O)N[C@@H](CCC(N)=O)C(N)=O)[C@@H](C)CC)[C@@H](C)CC)[C@@H](C)O)[C@@H](C)O)C(C)C)C(C)C	broth microdilution	14936, RPMI-1640	48 h, 30 °C	4 µM
C#Cc1ccc(O)c(C=NNC(=O)c2cc(Br)cc(Br)c2O)c1		A39	48 h	0.5 µg/mL

Some of these lines once more:
SMILES	test	system	setting	MIC
OC(Cn1cncn1)(Cn1cncn1)c1ccc(F)cc1F	broth microdilution	14936, RPMI 1640-MOPS	48 h, 30 °C	32 µM
